Measured values gathered from unrelated publications.
Each line is one published result; not all experiments were run side by side.
Observed: metabolic stability
Species: human

| Compound | system | setting | endpoint | result |
| --- | --- | --- | --- | --- |
| Fc1ccc(OCC2CN(Cc3ncn4ccccc34)CCC2(F)F)cc1 (stereo not shown) | liver microsomes | – | scaled CLint | 260 mL/min/kg |
| O=S(=O)(Nc1ccc(CO)cc1)c1ccc(Cl)c(Cl)c1 | hepatocytes | 1 µM | hepatocyte CLint | 118 µL/min/10⁶ cells |
| Fc1ccc(OCC2CN(Cc3cn4ccccc4n3)CCC2(F)F)cc1 (stereo not shown) | liver microsomes | – | scaled CLint | 349 mL/min/kg |
| CCC(CC)CNC(=N)NC(=N)NCCCCCCNC(=N)NC(=N)NCC(CC)CC | liver microsomes | 2 µM | scaled CLint | 2.6 mL/min/kg |
| COc1ccc(CN2CCC(F)(F)C(COc3ccc(F)c(F)c3)C2)cc1F (stereo not shown) | liver microsomes | – | scaled CLint | 157 mL/min/kg |
| O=C(N1CCCCC1)C12CC(c3ccccc3)(C1)C2(F)F | liver microsomes | 2 µM, pH 7.4 | microsomal CLint | 19 µL/min/mg |
| COc1cc(C)c(C(N)=O)cn1 | hepatocytes | 1 µM, pH 7.4 | hepatocyte CLint | 21 µL/min/10⁶ cells |
| O=C(N1CCCCC1)C12CC(c3ccccc3)(C1)C2(Cl)Cl | liver microsomes | 2 µM, pH 7.4 | microsomal CLint | 65 µL/min/mg |
| Cc1[nH]nc2c1N=C(c1ccccc1Cl)c1cnc(N3CCOCC3)cc1N2 | liver microsomes | 1 µM, pH 7.4 | scaled CLint | 14.9 mL/min/kg |
| COc1ccc(C(N)=O)cn1 | liver microsomes | 1 µM, pH 7.4 | microsomal CLint | < 3 µL/min/mg |
| Cc1ccc2c(c1)nc(NC(=O)c1cccc(C(F)(F)F)c1)n2[C@H]1CC[C@H](N)CC1 | liver microsomes | – | microsomal CLint | 27 µL/min/mg |
| O=C(c1ccc(-c2cccc(C(F)(F)F)c2)cc1)N1CCN(c2ncccn2)CC1 | liver microsomes | – | microsomal CLint | 45 µL/min/mg |
| Fc1ccc(OCC2CN(Cc3cn4ccccc4n3)CCC2(F)F)cc1F (stereo not shown) | liver microsomes | – | scaled CLint | 456 mL/min/kg |
| CN(CCC#N)c1nc(NCC[C@H]2CCCN2C)nc2sc(-c3ccccc3)cc12 | hepatocytes | – | hepatocyte CLint | 230 µL/min/10⁶ cells |
| CNc1cc(N)c(C(N)=O)cn1 | liver microsomes | 1 µM, pH 7.4 | microsomal CLint | < 3 µL/min/mg |
| O=C(Nc1cc(-c2ccnc3[nH]ccc23)c(Cl)cn1)[C@H]1CCC[C@@H](NC(=O)C(F)(F)F)C1 | liver microsomes | – | microsomal CLint | 24.5 µL/min/mg |
| Nc1nc(SCc2ccc(Cl)cc2)nn1S(=O)(=O)c1ccc2c(c1)CCO2 | liver microsomes | 1 µM, pH 7.4 | microsomal CLint | 219 µL/min/mg |
| CCC1(CC)CC(=O)N(C2CCOc3ccc(C(=O)NC4CC(C)(C)Oc5ccccc54)cc32)C(=N)N1 (stereo not shown) | hepatocytes | – | hepatocyte CLint | 11.6 µL/min/10⁶ cells |
| CNC(=O)C1CCCN(C(=O)C2CC3CCC2N3C(=O)[C@@H]2C[C@@H](O)CN2C(=O)NCc2cccc(Cl)c2F)C1 (mixture of isomers) | liver microsomes | – | microsomal CLint | 26.1 µL/min/mg |
| O=c1[nH]cccc1[C@H](CO)Nc1nc(N2C[C@@H]3C[C@H]2CO3)c2cc(-c3ccccc3)sc2n1 | hepatocytes | – | hepatocyte CLint | 13.5 µL/min/10⁶ cells |
| Cn1ncc2cc(CN3CCC(F)(F)C(COc4ccc(C#N)cc4)C3)ccc21 (stereo not shown) | liver microsomes | – | scaled CLint | 111 mL/min/kg |
| CNc1cc(C)c(C(N)=O)cn1 | liver microsomes | 1 µM, pH 7.4 | microsomal CLint | < 4.8 µL/min/mg |

Some of these lines once more:
| Compound | system | setting | endpoint | result |
| --- | --- | --- | --- | --- |
| COc1ccc(CN2CCC(F)(F)C(COc3ccc(F)c(F)c3)C2)cc1F (stereo not shown) | liver microsomes | – | scaled CLint | 157 mL/min/kg |
| Fc1ccc(OCC2CN(Cc3cn4ccccc4n3)CCC2(F)F)cc1 (stereo not shown) | liver microsomes | – | scaled CLint | 349 mL/min/kg |
| Fc1ccc(OCC2CN(Cc3cn4ccccc4n3)CCC2(F)F)cc1F (stereo not shown) | liver microsomes | – | scaled CLint | 456 mL/min/kg |
| Cc1ccc2c(c1)nc(NC(=O)c1cccc(C(F)(F)F)c1)n2[C@H]1CC[C@H](N)CC1 | liver microsomes | – | microsomal CLint | 27 µL/min/mg |
